Measurements collected from several papers.
Several values in a cell are separate wells, animals, samples, runs or records. ± gives the spread as reported.
DCPS: m7GpppX diphosphatase (DCPS, Homo sapiens, UniProt Q96C86)
CASP10: Caspase-10 (CASP10, Homo sapiens, UniProt Q92851)
CASP8: Caspase-8 (CASP8, Homo sapiens, UniProt Q14790)
T1: DNA, abasic bulge, mismatch; chain GTCCAGTGCAACG; chain CGTTGCGGCTGGAC

C[n+]1cn([C@@H]2O[C@H](COP(=O)(O)OP(=O)([O-])OP(=O)(O)O)[C@@H](O)[C@H]2O)c2nc(N)nc(O)c21  hydrolysis (DCPS; substrate, HPLC; concentration not given, 15 min): 12.1 ± 0.9%
O=C(O[C@@H]1Cc2c(O)cc(O)cc2O[C@@H]1c1cc(O)c(O)c(O)c1)c1cc(O)c(O)c(O)c1  reduction of fibril density (Microtubule-associated protein tau, AD brain-derived fibrils (MAPT, Homo sapiens, UniProt P10636); tau fibril disaggregation, negative-stain EM; AD brain tau fibrils; concentration not given, 48 h): 70 to 80%
CC(=O)N[C@H](CCc1ccccc1)C(=O)N[C@@H](CCC(=O)O)C(=O)N[C@@H](CCC(N)=O)C(=O)N[C@@H](CC(=O)O)C(=O)COC(=O)c1c(C)cccc1C  kinact/KI (CASP10; enzyme activity, inhibitor): 22700 M⁻¹ s⁻¹
O=C1c2sc(-c3ccc(N4CCC(CO)CC4)nc3F)nc2CCN1c1cccnc1  specific binding (TAR DNA-binding protein 43, aggregated (TARDBP, Homo sapiens, UniProt Q13148); radioligand binding; human, FTLD-TDP type B sarkosyl-insoluble extract; 72.89 nM): 2.61 nM and 1.68 nM
CC[C@H](C)[C@H](NC(=O)[C@H](CCC(N)=O)NC(=O)[C@@H](NC(=O)[C@@H]1CCCN1[C@@H]1CN(C(=O)[C@H](CCCCN)NC(=O)[C@H](CC(N)=O)NC(=O)[C@@H](NC(=O)[C@@H](NC(=O)[C@H](CCC(N)=O)NC(=O)[C@@H](N)C(C)C)[C@@H](C)CC)[C@@H](C)CC)CC[C@H]1NS(=O)(=O)c1ccc(C)cc1)C(C)C)C(=O)N[C@H](C(=O)N[C@@H](Cc1ccc(O)cc1)C(=O)N[C@@H](CCCCN)C(N)=O)C(C)C  fibrillization half-time (Microtubule-associated protein tau, 2N4R isoform (MAPT, Homo sapiens, UniProt P10636, del597-597); ThT fluorescence; 0.1-fold over protein, together with: tau ΔK280 10 µM; reference: untreated): 121 ± 24%
COc1ccccc1-c1ccncc1C(=O)Nc1nnc(OCc2ccc(Cl)cc2)s1  remaining activity (DNA polymerase theta, helicase domain (POLQ, Homo sapiens, UniProt O75417); ATPase activity, ADP-Glo; 0.008 µM; reference: 0 µM cpd): 67%
C=CC(=O)N1CC2(CCN(c3nc(OC4CCN(CCCOC)CC4)nc4c(OCC(F)(F)F)c(-c5c(C)ccc6[nH]ncc56)c(C5CC5)cc34)CC2)C1  association rate constant (GTPase KRas, GDP-bound (KRAS, Homo sapiens, UniProt P01116, G13D); binding, surface plasmon resonance): 34500 ± 3500 M⁻¹ s⁻¹
CC1(C)C[C@@H](Nc2cccc(-c3sc(C(=O)O)c(OCC(=O)O)c3Cl)c2)CCN1S(=O)(=O)Cc1cccc(NC(=O)CN2CCC(c3ccc4c(c3)oc(=O)n4C3CCC(=O)NC3=O)CC2)c1 (stereo partly drawn)  remaining protein (Tyrosine-protein phosphatase non-receptor type 1 (Mus musculus, UniProt P35821); degrader, Western blot; B16-F10; 0.01 µM): 95.7% and 78.7%
CC(=O)N[C@@H](CC(=O)O)C(=O)N[C@@H](CCC(=O)O)C(=O)N[C@@H](CC(C)C)C(=O)N[C@@H](CC(=O)O)C(=O)COC(=O)c1c(C)cccc1C  kinact/KI (CASP8; enzyme activity, inhibitor): 798000 M⁻¹ s⁻¹
CCCCCC=CC=C1C(=O)C=CC1CC=CCCCC(=O)O (stereo not drawn)  isoTOP-ABPP competition ratio (Exportin-2 (Homo sapiens, UniProt P55060); competitive isoTOP-ABPP, refers to: CSE1L cysteine peptide; proteome, soluble, MDA-MB-231; 100 µM, together with: iodoacetamide probe; reference: DMSO over compound-treated, higher = stronger cysteine blockade): 2.3
CC(=O)N[C@H](C(=O)N[C@@H](CCC(=O)O)C(=O)N[C@@H](CO)C(=O)N[C@@H](CC(=O)O)C(=O)COC(=O)c1c(C)cccc1C)[C@@H](C)O  kinact/KI (CASP10; enzyme activity, inhibitor): 66000 M⁻¹ s⁻¹
C[C@@H](Nc1nc(N[C@H](C)C(F)(F)F)nc(-c2cccc(Cl)n2)n1)C(F)(F)F  maximal inhibition (IDH1 (Homo sapiens, UniProt O75874, R132H); refers to: 2-hydroxyglutarate; HCT-116): 90%
CC(=O)N[C@@H](Cc1ccc(I)cc1)C(=O)N[C@@H](CCC(=O)O)C(=O)N[C@H](C(=O)N[C@@H](CC(=O)O)C(=O)COC(=O)c1c(C)cccc1C)[C@@H](C)O  kinact/KI (CASP8; enzyme activity, inhibitor): 796000 M⁻¹ s⁻¹
C#CCOC(=O)[C@@]1(C)C=C(C(=O)OC(C)(C)C)C(=O)CC1  normalized kinase activity (MAPK8 (Homo sapiens, UniProt P45983); enzyme activity, D-SENSOR; 4.938 µM, mean of replicates): 0.9
C[n+]1cn([C@@H]2O[C@H](COP(=O)(O)OP(=O)([O-])C(F)(F)P(=O)(O)O)[C@@H](O)[C@H]2O)c2nc(N)nc(O)c21  hydrolysis (DCPS; substrate, HPLC; concentration not given, 30 min): 4 ± 0.8%
N=C(N)NCCS(=O)(=O)O  normalised MST signal (SLC6A6 (Homo sapiens, UniProt P31641, Y138A); binding, microscale thermophoresis; 500 µM, room temperature, together with: 50 nM labelled protein; higher = more binding): -0.0173
C[N+]1(C)CCCC1  kon (Chrnd/Chrna1/Chrne (Mus musculus, UniProt P02716+P04756+P20782, G173A/S470W); binding, agonist, single-channel recording; binding site chain A side): 1.49e+07 M⁻¹ s⁻¹
COc1ccc(C(=O)c2c(C(=O)NCCCN(C)C)oc3ccc(Cl)cc3c2=O)cc1OC  Emax (net BRET) (GHSR (Homo sapiens, UniProt Q92847); endosomal trafficking, agonist, bystander BRET 2xFYVE-Venus; 0 min, unit not given; reference: baseline): 0
CC(=O)N1[C@H](C(=O)N[C@@H](CC(C)C)C(=O)N[C@@H](C)C(=O)N[C@@H](CC(=O)O)C(=O)COC(=O)c2c(C)cccc2C)C[C@@H]2CCCC[C@@H]21  kinact/KI (CASP10; enzyme activity, inhibitor): 8200 M⁻¹ s⁻¹
Nc1c(NCO)c2ccccc2oc1=O  agonist activity (ADRA1A (Homo sapiens, UniProt P35348); calcium mobilization, agonist; COS-7; 500 µM; reference: 3 µM ionomycin): 3.74 ± 0.35%
Cc1cn(CC(=O)N(CC(=O)N[C@H]2CCC[C@@H]2N(CC(=O)N[C@H]2COC[C@@H]2N(CC(=O)N[C@H]2COC[C@@H]2N(CC(=O)N[C@H]2COC[C@@H]2N(CC(=O)NCCOCCOCC(N)=O)C(=O)Cn2cnc3c(N)ncnc32)C(=O)Cn2cc(C)c(=O)[nH]c2=O)C(=O)Cn2cnc3c(N)ncnc32)C(=O)Cn2cnc3c(=O)[nH]c(N)nc32)[C@H]2CCC[C@@H]2NC(=O)CN(C(=O)Cn2cnc3c(=O)[nH]c(N)nc32)[C@H]2CCC[C@@H]2NC(=O)CN(C(=O)Cn2cc(C)c(=O)[nH]c2=O)[C@H]2COC[C@@H]2NC(=O)CN(C(=O)Cn2cnc3c(N)ncnc32)[C@H]2COC[C@@H]2NC(=O)CN(C(=O)Cn2cnc3c(=O)[nH]c(N)nc32)[C@H]2COC[C@@H]2N)c(=O)[nH]c1=O  Tm (complementary DNA; duplex formation, UV melting curve fit; PBS; 1 µM, fit parameter α 0.5): 82.6 ± 0.2 °C
CC[C@H](C)[C@@H]1NC(=O)[C@H](Cc2ccccc2)NC(=O)[C@H](CCC(=O)O)NC(=O)[C@H](CCCNC(=N)N)NC(=O)CNC(=O)[C@@H](NC(=O)[C@H](CC(C)C)NC(=O)[C@H](CCCNC(=N)N)NC(=O)[C@@H](NC(=O)CNC(=O)[C@H](Cc2ccc(O)cc2)NC(=O)[C@@H]2CCCN2C(=O)[C@H](C)NC(=O)[C@H](C)NC(=O)[C@@H](N)CCCNC(=N)N)C(C)C)CSSC[C@@H]2NC(=O)[C@@H](NC(=O)[C@H](CO)NC(=O)[C@H](CO)NC(=O)[C@H](CO)NC(=O)[C@H](CC(C)C)NC(=O)CNC(=O)[C@H](C)NC(=O)[C@H](CC(C)C)NC(=O)[C@@H](NC(=O)[C@@H](N)CC(=O)O)C(C)C)CSSC[C@H](NC(=O)CNC(=O)[C@H](Cc3c[nH]c4ccccc34)NC(=O)[C@H](CCCCN)NC2=O)C(=O)N[C@@H](CO)C(=O)N[C@@H](CCCCN)C(=O)N[C@@H](CO)C(=O)N[C@@H](CCC(=O)O)C(=O)N[C@@H]([C@@H](C)CC)C(=O)N[C@@H](CO)C(=O)N[C@@H](CO)C(=O)N[C@@H](CC(C)C)C(=O)N[C@H](C(=O)O)CSSC[C@@H](C(=O)NCC(=O)NCC(=O)N[C@@H](CO)C(=O)N[C@@H](CCCNC(=N)N)C(=O)N[C@@H](Cc2c[nH]c3ccccc23)C(=O)O)NC(=O)[C@H]([C@@H](C)O)NC(=O)[C@H](Cc2ccccc2)NC(=O)[C@H]([C@@H](C)CC)NC(=O)[C@H](C(C)C)NC(=O)[C@H](C)NC(=O)[C@H](CCCNC(=N)N)NC1=O  ΔpEC50 (RXFP4 (Homo sapiens, UniProt Q8TDU9, F291A); F291A mutant, unit not given; reference: wild type): -0.415 and -0.432 and -1.09
CC(C)[C@@H]1NC(=O)[C@H](Cc2ccccc2)NC(=O)CSC[C@@H](C(N)=O)NC(=O)[C@H](CCC(=O)O)NC(=O)[C@H](CO)NC(=O)[C@H](Cc2c[nH]c3cccc(Cl)c23)NC(=O)[C@H](C2CCCCC2)NC(=O)[C@H](C(C)C)NC(=O)[C@H](Cc2ccc(O)cc2)NC(=O)[C@H](CC(=O)O)NC(=O)[C@H](Cc2c[nH]c3ccccc23)NC(=O)[C@H](Cc2ccc(N)nc2)NC(=O)[C@H](Cc2c[nH]c3ccc(Cl)cc23)NC(=O)[C@H](CCC(=O)O)NC1=O  remaining activity (Interleukin-1 receptor-like 2 (IL1RL2, Homo sapiens, UniProt Q9HB29); reporter gene (SEAP), inhibitor, HEK-Blue IL-36R reporter; HEK-Blue IL-36R cells; 0.005 µM, 6 h, together with: IL-36γ 0.01 ng/mL): 106%
CC[C@H](C)[C@H](NC(=O)[C@@H](NC(=O)[C@@H](NC(=O)[C@@H](NC(=O)[C@H](CCCCN)NC(=O)[C@H](CCC(=O)O)NC(=O)[C@H](C)N)C(C)C)C(C)C)C(C)C)C(=O)N[C@H](C(=O)N[C@@H](CCCCN)C(N)=O)[C@@H](C)O  ThT fluorescence (Microtubule-associated protein tau, PHF6* peptide (MAPT, Homo sapiens, UniProt P10636); fibril formation, ThT fluorescence; 1-fold of peptide, pH 7.4, together with: Ac-PHF6* 25 µM, heparin; reference: untreated): 114 ± 4%
CC(C)Oc1cc(Cl)ccc1CNc1cc(-c2ccccc2)nc2ncnn12  cAMP luminescence (GPR3 (Homo sapiens, UniProt P46089, V196W); cAMP level, cAMP GloSensor; 300 nM; higher = more cAMP): 32600 a.u. and 33200 a.u. and 51200 a.u. and 44900 a.u.
COc1cc(-c2cn(C)c(=O)c3cnccc23)cc(OC)c1CN(C)C  ΔTm (TRIM24 (Homo sapiens, UniProt O15164)): 0.4 °C
CC(C)(C(=O)N1CCC(Nc2nc3c(c(=O)[nH]2)CCCC3)CC1)c1ccc(Cl)cc1  Hill slope (MRGPRD (Homo sapiens, UniProt Q8TDS7, Y245A); miniGq recruitment, agonist, BRET; HEK293T; Y245A mutant): 1.03
CC(=O)N[C@@H](CO)C(=O)N[C@H](C(=O)N1CCC[C@H]1C(=O)N[C@@H](CC(=O)O)C(=O)COC(=O)c1c(C)cccc1C)C(C)(C)C  kinact/KI (CASP8; enzyme activity, inhibitor): 1.76e+06 M⁻¹ s⁻¹
Cc1ccc2ccc(NC(=O)OCCCNCCCOC(=O)Nc3ccc4ccc(C)nc4n3)nc2n1  binding (T1, DNA, abasic bulge, mismatch; CSI-TOF mass spectrometry): binds weakly
CC(=O)N[C@@H](CC(=O)O)C(=O)N[C@H](C(=O)N[C@@H](C)C(=O)N[C@@H](CC(=O)O)C(=O)COC(=O)c1c(C)cccc1C)[C@@H](C)OCc1ccccc1  kinact/KI (CASP8; enzyme activity, inhibitor): 191000 M⁻¹ s⁻¹
CCCCCCCCCCCCC/C=C/C=O  isoTOP-ABPP competition ratio (Bleomycin hydrolase (Homo sapiens, UniProt Q13867); competitive isoTOP-ABPP; Ramos soluble proteome; 100 µM, 60 min, together with: iodoacetamide probe; reference: DMSO over compound-treated, higher = stronger cysteine blockade): 1
CC(=O)N[C@@H](CC(=O)O)C(=O)N[C@@H](CC(C)C)C(=O)N[C@@H](C)C(=O)N[C@@H](CC(=O)O)C(=O)COC(=O)c1c(C)cccc1C  kinact/KI (CASP8; enzyme activity, inhibitor): 246000 M⁻¹ s⁻¹
CCN(CC)Cc1cc(-c2coc3cc(O)ccc3c2=O)ccc1Cl  DHEA metabolism (HSD3B1 (Homo sapiens, UniProt P14060); [3H]-DHEA conversion; LNCaP; 0.1 µM, normalized to protein, unit not given; reference: vehicle): 1.25

For quick reference, copied from above:
CC(=O)N[C@@H](Cc1ccc(I)cc1)C(=O)N[C@@H](CCC(=O)O)C(=O)N[C@H](C(=O)N[C@@H](CC(=O)O)C(=O)COC(=O)c1c(C)cccc1C)[C@@H](C)O  kinact/KI (CASP8; enzyme activity, inhibitor): 796000 M⁻¹ s⁻¹
C#CCOC(=O)[C@@]1(C)C=C(C(=O)OC(C)(C)C)C(=O)CC1  normalized kinase activity (MAPK8 (Homo sapiens, UniProt P45983); enzyme activity, D-SENSOR; 4.938 µM, mean of replicates): 0.9
C[n+]1cn([C@@H]2O[C@H](COP(=O)(O)OP(=O)([O-])C(F)(F)P(=O)(O)O)[C@@H](O)[C@H]2O)c2nc(N)nc(O)c21  hydrolysis (DCPS; substrate, HPLC; concentration not given, 30 min): 4 ± 0.8%
N=C(N)NCCS(=O)(=O)O  normalised MST signal (SLC6A6 (Homo sapiens, UniProt P31641, Y138A); binding, microscale thermophoresis; 500 µM, room temperature, together with: 50 nM labelled protein; higher = more binding): -0.0173
C[N+]1(C)CCCC1  kon (Chrnd/Chrna1/Chrne (Mus musculus, UniProt P02716+P04756+P20782, G173A/S470W); binding, agonist, single-channel recording; binding site chain A side): 1.49e+07 M⁻¹ s⁻¹
